Measurements collected from several papers.
Parts stem from different laboratories: compare values within a part only. Changes are numbered by the printed parent chain.

Set 1
Target: CCNA2, cyclin fold, Cln2 fusion (human)
Technique: yeast growth competition, sequencing
Medium: yeast
Setting: strong parent motif
Baseline: not given
Direction: higher = stronger binding
Parent: PKN2 docking peptide (human); VSAVQKLDFSDTM; partner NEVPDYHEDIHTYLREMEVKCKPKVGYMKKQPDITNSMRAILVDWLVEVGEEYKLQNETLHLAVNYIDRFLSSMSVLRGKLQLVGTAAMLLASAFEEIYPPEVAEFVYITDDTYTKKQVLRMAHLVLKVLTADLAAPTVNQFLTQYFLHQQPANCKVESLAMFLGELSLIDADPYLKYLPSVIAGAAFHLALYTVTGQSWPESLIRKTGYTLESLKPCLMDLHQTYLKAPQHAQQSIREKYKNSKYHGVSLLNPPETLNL
Change	normalised enrichment score
M13S	2.51
V1P	1.87
S10Y	1.84
F9Q	-0.274
A3F	1.06
S2Q	1.74
T12V	1.99
D11V	1.74
V1M	2.38
A3N	-0.276
V1T	2.26
D11T	2.15
D11H	2.21
F9A	0.00988
V4P	0.76
S2R	3.58
K6L	-0.165
V4L	0.572
T12C	2.32
D11F	1.33
D8L	1.54
L7W	-0.218
M13D	2.15
L7D	-0.659
M13H	2.09

Set 2
Target: Centromere-binding protein 1, full length, His-tagged (CBF1, Saccharomyces cerevisiae, UniProt P17106, residues 1-351)
UniProt P17106, sequence (whole entry, looked up): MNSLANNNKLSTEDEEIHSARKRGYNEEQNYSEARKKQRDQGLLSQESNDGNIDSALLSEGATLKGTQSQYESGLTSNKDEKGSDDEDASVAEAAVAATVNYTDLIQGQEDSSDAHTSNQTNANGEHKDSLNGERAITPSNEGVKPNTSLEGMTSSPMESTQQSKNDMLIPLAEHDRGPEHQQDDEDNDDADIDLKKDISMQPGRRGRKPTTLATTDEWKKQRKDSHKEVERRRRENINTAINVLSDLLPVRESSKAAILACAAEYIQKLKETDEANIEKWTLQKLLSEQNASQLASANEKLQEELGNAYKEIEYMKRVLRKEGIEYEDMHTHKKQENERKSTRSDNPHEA
Technique: competition protein-binding microarray
Molecule type: double-stranded DNA, one strand shown
Medium: in vitro
Concentration: 2 µM
Setting: whole 60-bp probe, lowest competitor level
Added: Pho4 competitor, 0.05 µM
Direction: higher = stronger binding
Shared flanks, not repeated: … GTCTTGATTCGCTTGACGCTGCTG
Strand	fluorescence intensity [a.u.]
ACCTCTTCCATGTCCCACGTAATGGCAATTGGCATA	69.9
CGACCACATATATGGAACGTGGTCGAAATACAAAGA	157
AAATTACTAAGTTGTAAAGTGGGTGACGCCGTATGA	70.7
TGCGCAACAACTTGTCACCGAACTTTATGTCTAGAA	66.8
AAGTTATGATATCTGCACGTGGAACACTTCCAATCT	821
AAAGCGGTAATTTGTCACCTTACTTCACATATCTAT	89.1
ATAGCAGCCTATGGACACGGGATACAGTACCAGCAA	157
CACTCCCGCAGTCCTGGCGTGATGGGCCACTGCAGT	59
CGTCCTAGTGATTGGAGAGTGGGTGCCATGAGGAAG	74.9
GGTAAAAAGCACAGGCATGTGAATTGCACAGCAGTG	126
CGTCCTAGTGATTGGATTGTGGGTGCCATGAGGAAG	88.8
ACATCAAGGCACAATCACCTGATGAGTCTGCCTTAG	327
CAGCATTGCTACAGACACGTGAGTAATGCATTGTGT	1670
TATTTTTTTAAGCAGAACGTGCTTTGCTCTCCCTTT	104
AAAGCGGTAATTTTTCACGTGAGCTCACATATCTAT	1210
TCTGTGCTGTTCAATAACGTGGAATCCATTTTTGCT	98.1
AGAAATGAGTGGAAGCGCGTGGAAGCCCGTCTAGCA	52.8

Set 3
Target: CREB3, bZIP domain (human)
Technique: DHFR protein complementation
Medium: yeast
Setting: single substitutions, most at no-binding floor
Baseline: wild-type JUN-FOS pair
Direction: higher = stronger binding
Parent: JUN, bZIP domain (human); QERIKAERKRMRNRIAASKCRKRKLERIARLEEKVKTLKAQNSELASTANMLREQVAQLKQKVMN; partner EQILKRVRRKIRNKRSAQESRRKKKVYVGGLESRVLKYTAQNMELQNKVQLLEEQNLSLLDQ
Change	binding fitness
K39L	-1.53 natural log
A49M	-1.43 natural log
I28D	-1.34 natural log
N42M	-1.43 natural log
S43G	-1.4 natural log
Q55V	-1.43 natural log
A40M	-1.52 natural log
R30G	-1.38 natural log
L45E	-1.5 natural log
N42C	-1.34 natural log
S47E	-1.29 natural log
A40W	-1.42 natural log
T48D	-1.48 natural log
E32M	-1.14 natural log
I28G	-1.37 natural log

Set 4
Target: ABI1, truncated, D143A, DHFR fusion (Arabidopsis thaliana)
Technique: DHFR PCA, deep sequencing
Medium: yeast
Setting: methotrexate growth selection, single substitutions
Added: (+)-ABA 58 µM
Baseline: wild-type fitted maximum
Direction: higher = stronger binding
Parent: PYL1, truncated, DHFR fusion (Arabidopsis thaliana); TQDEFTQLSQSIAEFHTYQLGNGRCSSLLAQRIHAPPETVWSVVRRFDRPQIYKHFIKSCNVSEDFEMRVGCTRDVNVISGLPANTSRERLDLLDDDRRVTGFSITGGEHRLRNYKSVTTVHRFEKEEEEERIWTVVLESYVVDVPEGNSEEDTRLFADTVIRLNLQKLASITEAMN
Change	relative binding score [%]
L164W	74.7
F47A	-4.35
V161P	-8.85
D96T	23.1
N177I	80.3
L93C	87.5
T120F	-0.297
D92F	15.8
V76L	75.4
S140H	-1.14
T154F	-13.6
V145Y	6.49
E127P	96.5
K126L	95
E4Q	79.6
T39I	92.1
R98S	66.8
R45A	41.8
C25L	53.7

Set 5
Target: RING finger protein unkempt homolog, zinc fingers 1-6, GST-SBP tag (UNK, Homo sapiens, UniProt Q9C0B0, residues 30-357)
Technique: RNA Bind-n-Seq
Molecule type: RNA
Medium: in vitro
Concentration: not given
Setting: RNA with constant flanks, human and mouse sites, ends assumed
Baseline: input RNA pool
Direction: higher = stronger binding
Shared flanks, not repeated: GGGAGUUCUACAGUCCGACGAUC … CAACAGAGGAUUGAGCAUCA
Construct (chain): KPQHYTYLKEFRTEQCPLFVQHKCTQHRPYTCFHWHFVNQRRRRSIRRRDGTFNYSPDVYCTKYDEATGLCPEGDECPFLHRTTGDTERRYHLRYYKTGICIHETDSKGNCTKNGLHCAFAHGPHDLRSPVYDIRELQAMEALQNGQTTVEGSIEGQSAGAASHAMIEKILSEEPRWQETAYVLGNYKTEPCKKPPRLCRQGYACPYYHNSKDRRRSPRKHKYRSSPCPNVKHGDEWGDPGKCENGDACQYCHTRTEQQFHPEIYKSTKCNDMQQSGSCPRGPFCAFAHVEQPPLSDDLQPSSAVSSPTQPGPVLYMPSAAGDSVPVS
Strand	bound/input enrichment [ratio]
UCUAAGGAAGACAAAAUGAAAGAAAGUGAAACAUUUUCCGAUUCAUCUCCCAUUGAGAUAAUAGAUGAGUUUCCCACAUUUGUCAGUGCUAAAGAUGAUUCUCCUAAGGAGUACACUGAC	0.0779
GUGGUUCUGGUCACCGUCGCUGCCAUUGUUAGAAAGAUUUUUAAUGAUAUGCGGGGUGUCGUAGCUAAACAACGGACACAUACAAGAAAACAACAAUUUGAACAUGGAGAGUUGGUUUAC	0.723
UUGAAACAGUCAACUCGGAAAUUAACUAUAAGACUUGUUCUAUUUAUAAGUAUUUAUUUCUAAUGCCUCCACAUAGCCCUGUAAUAUUCAGAUGGAACCCCCAACCACCUCCACCCUGUU	0.869
UUCAAAGAGAAAACCCAGCAGUGGAAGUUGCUUGGCCAAUCCCAAGAUAAUGAAAAGGAAUUAGCUGCCCUCUUCCAGCUAUGGCUAGAGACCAAAGAUCAGGCCUUCUGUAAGCAAGAA	0.154
UAGAAUCUUGUUUUUAGAUUGAAUUUGAAUCUAUAUUUAUUGUCUUUUUGUAUCUUGGAAAUUAGAGAUUUGUUAUAGAUUUACCUGUAUUUGUCAAGAUCAUAGCUGGUUUUAAAAAUG	2.03
GGUACGGGUCUUCCUGCCUCAUUCCUCUUCCUCUUUGUGUAGGUUUCAGCCACAAAACUGUCAUUCACUCUAGGGGACCCCUACUAAAGGGUAACUUCAGGUGUGCAGCCCUGAGCUCCA	0.0936
CGAUUCUACAUAGCAGAACUUACCUGUGCAGUUGAAAGUGUUCAUAAAAUGGGUUUUAUUCAUAGAGAUAUUAAACCUGAUAACAUUUUGAUUGACCGUGAUGGCCAUAUUAAAUUGACU	0.514
ACACCUGCUUUAUAUAUGCUUUCUCCUUUCAGUCCUCUAAGAAGAAUAUCUAUUAAGAUUUUAGUACACUCCUUAUUCAGCAUGCUCAUCAUGUGCACUAUUCUGACAAACUGCAUAUUU	0.611
UAGUUGCGCUGUUUGGAACAAACAUGGAUAUUGUUGAGCCCACUGCAUGAAGCAAAAGUAUGGGGAAGAAGACCAUUAGUGAAACAGUUCCGUAGUAGUGGUUAGUCCACUGAGAAUGUG	1.25
CUACUAGUUCAUGGGUCUUUGGCUUUUCCUUUGGGGCUAGAUACCUACCAUGGCUGUGUGAUAGCUGCAGCUCGCUAUGGCCGGGGUCGGGUAGUUGUAACUGGUCAUAAGGUUUUAUUU	0.595
CCUCUUGAUAACUGCCGAGGGUUACAUCCACUAGACUCACUGAGCCCACUUUGCUUUAUUAUACAGGCAUGUGGAAAUAUCCAUGAAUGUGAAUAUUGCCUGAGUUCAGUCUUAGUAUCU	0.15

Set 6
Target: Histone acetyltransferase KAT6A, winged helix 2, GST fusion (KAT6A, Homo sapiens, UniProt Q92794, residues 85-181)
Technique: protein binding microarray
Molecule type: double-stranded DNA, one strand shown
Medium: in vitro
Concentration: not given
Setting: 8-mer, flanks averaged, mean of 2 arrays, mostly near background
Baseline: not given
Direction: higher = stronger binding
Target sequence (chain): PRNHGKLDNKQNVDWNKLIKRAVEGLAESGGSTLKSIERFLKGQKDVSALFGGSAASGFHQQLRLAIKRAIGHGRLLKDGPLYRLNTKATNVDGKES
Strand	E-score
CCAGTCCG	0.112
ATCCTTGA	-0.0374
TTCCCAAA	0.13
CACCGGCC	0.00655
CCATCATA	-0.0996
ATACCCCG	-0.065
CGACGTTA	0.0384
GAGCCTAA	0.0927
AACAGCTC	0.0557
CTGCGAAA	0.174
GAACCGAC	0.2
TGGACGAA	-0.00924
GAATGGCC	0.0793
CATCCAAG	0.122
GTTACTAA	0.0816
CCTTATAC	-0.00428
GCGACCCA	0.145
GCCGGACA	0.174
GACGGCGC	0.094
GACACCAC	-0.0608
GCAGTCAA	-0.0173
ACTACCAC	-0.116

Some of these lines once more (set 1):
Change	normalised enrichment score
F9A	0.00988
V4P	0.76
S2R	3.58
K6L	-0.165
V4L	0.572
T12C	2.32
D11F	1.33
D8L	1.54
L7W	-0.218
